Measurements pooled from the literature.
Protocols differ between the studies behind these lines. ± marks the error that the study gave.

For `CC(C)(C)C(=O)NNCc1ccccc1`, the pKa was 2.65 (acid-base titration; water; average).
The pKa of `COC(=O)[C@H]1[C@@H](c2ccc(Cl)cc2)C[C@@H]2CC[C@H]1N2CCCCCCCCCc1c2ccccc2cc2ccccc12` is reported as 4.9 (fluorometric titration; 1 µM, 10% DMSO).
With `Cc1nonc1Cn1nnc2c(N3CC[C@H](O)C3)nc(C(C)(C)C)nc21` the pKa was 2.6 (basic).
For `COc1cc(C[C@@H](C)N)c(OC)cc1I.Cl`, “pKa (basic amine)” read 9.89 (potentiometric titration; water (extrapolated)).
For `COC(=O)[C@H]1[C@@H](c2ccc(Cl)c(Cl)c2)C[C@@H]2CC[C@H]1N2CCCOCc1ccc2cc3ccccc3cc2c1`, the pKa was 6.5 (fluorometric titration; 1 µM, 10% DMSO).
`COc1ccc(C2(F)CC2N)cc1` (stereo not shown) gave a pKa of 7.5 (potentiometric titration; 0.1 M KNO3; 21 °C).
The pKa of `CN(C)c1cc(-c2ccncc2)c(-c2ccc3ccccc3c2)nn1` is reported as < 3.5.
`O=C(O)CNC(=O)C1C(=O)N(C2CCCCC2)C(=O)N(C2CCCCC2)C1=O` has a pKa of 6.1 (second acidic centre).
`O=C(O)C(F)(F)C(F)(F)F`: “pKa shift vs literature” 0.5 to 1 pKa units (19F NMR chemical shift titration; lower pKa than literature).
`CCCCCCCCCN(C)C` has a pKa of 10 (extrapolated from shorter analogues).
`O=C(O)C(F)F` gave a pKa of 1.22 ± 0.03 (19F NMR titration; MeOH/water; 27 °C).
`CCCCCCCCCCCCN(C)C` has a pKa of 10 (extrapolated from shorter analogues).
`COc1ccc(C2(F)CC2N)cc1OC` (stereo not shown) gave a pKa of 7.4 (potentiometric titration; 0.1 M KNO3; 21 °C).

Some of these lines once more:
For `COc1cc(C[C@@H](C)N)c(OC)cc1I.Cl`, “pKa (basic amine)” read 9.89 (potentiometric titration; water (extrapolated)).
